Results of several laboratories.
Protocols differ between the studies behind these lines. ± marks the error that the study gave.

The tissue uptake of CN1C(=O)[C@@H](Cc2ccc(O)c(I)c2)NC(=O)CNC(=O)[C@H](Cc2ccc3ccccc3c2)NC(=O)[C@H](CCCNC(=N)N)NC(=O)[C@H]1CCCNC(=O)c1ccc(CNC(=O)CN2CCN(CC(=O)O)CCN(CC(=O)O)CCN(CC(=O)O)CC2)cc1 [lutetium-177 labelled] is reported as 0.04 ± 0.01 %ID/g (refers to: 177Lu radioactivity; female CB-17 SCID mice, Daudi xenograft, muscle; intravenous, 0.16 nmol per mouse, 96 h).
The growth percent of COc1cc(CNC(=O)C[C@H](C)CCC=C(C)C)ccc1OCc1cn(-c2ccc(Cl)cc2Cl)nn1 is reported as 29.3% (OVCAR-8 ovarian cancer cells; SRB; 10 µM, 48 h).
With [64Cu+2].c1ccc(CNCc2ccc(CN3CCCN4CCNCCCN(CC4)CC3)cc2)nc1 the tissue uptake was 14.7 ± 3.21 %ID/g (CXCR4; NOD/SCID mouse, U87 and U87-stb-CXCR4 xenografts, lungs; iv, 30 min, ex vivo).
For CCCC[C@H](NC(=O)CNC(=O)CNC(=O)CN1CCN(CC(=O)O)CCN(CC(=O)O)CC1)C(=O)N[C@H]1CC(=O)NCCCC[C@@H](C(N)=O)NC(=O)[C@H](Cc2c[nH]c3ccccc23)NC(=O)[C@H](CCCNC(=N)N)NC(=O)[C@@H](Cc2ccccc2)NC(=O)[C@H](Cc2c[nH]cn2)NC1=O [gallium-67 labelled], the tissue uptake was 4 ± 0.32 %ID/g (female C57 mice, B16/F1 melanoma, skin; intravenous, 0.037 MBq, 0.5 h).
CCCC[C@H](NC(=O)CN1CCC(NC(=O)CN2CCN(CC(=O)O)CCN(CC(=O)O)CCN(CC(=O)O)CC2)CC1)C(=O)N[C@H]1CC(=O)NCCCC[C@@H](C(N)=O)NC(=O)[C@H](Cc2c[nH]c3ccccc23)NC(=O)[C@H](CCCNC(=N)N)NC(=O)[C@@H](Cc2ccccc2)NC(=O)[C@H](Cc2c[nH]cn2)NC1=O [gallium-68 labelled] has a tissue uptake of 0.1 ± 0.1 %ID/g (C57BL/6J mice male B16-F10 tumour, pancreas; 1 h post injection, unblocked).
Cn1c(=O)oc2ccc(-c3ccc(CC(C#N)NC(=O)C4CNCCCO4)c(F)c3)cc21 (stereo not drawn) has an AUC(0-t) of 3340 ng·h/mL (human, fed, plasma; 40 mg single dose, geometric mean).
[64Cu+2].c1cnc(CNCc2ccc(CN3CCCN4CCNCCCN(CC4)CC3)cc2)nc1 gave a tissue uptake of 2.03 ± 0.15 %ID/g (CXCR4; NOD/SCID mouse, U87 and U87-stb-CXCR4 xenografts, heart; iv, 30 min, ex vivo).
O=C(O)CCC(NP(=O)(O)OCCC[C@@H](NC(=O)CC[C@H](NC(=O)CCCCCNC(=O)c1ccc([18F])cc1)C(=O)O)C(=O)O)C(=O)O (stereo partly drawn) has a tissue uptake of 0.004 ± 0.001 %ID/g (mouse, CWR22Rv1 xenograft, blood; dose not given, 4 h, blocking agent pre-dosed).
CCCC[C@H](NC(=O)CNC(=O)CNC(=O)CN1CCN(CC(=O)O)CCN(CC(=O)O)CCN(CC(=O)O)CC1)C(=O)N[C@H]1CC(=O)NCCCC[C@@H](C(N)=O)NC(=O)[C@H](Cc2c[nH]c3ccccc23)NC(=O)[C@H](CCCNC(=N)N)NC(=O)[C@@H](Cc2ccccc2)NC(=O)[C@H](Cc2c[nH]cn2)NC1=O [gallium-67 labelled] gave a tissue uptake of 0.87 ± 0.09 %ID/g (female C57 mice, B16/F1 melanoma, bone; intravenous, 0.037 MBq, 4 h).
The tissue uptake of O=C(O)C1CN(Cc2ccc(-c3noc(-c4ccc(OCC[18F])c(C(F)(F)F)c4)n3)cc2)C1 is reported as 1.08 %ID/g (male Sprague-Dawley rat, kidney; intravenous, 30 min).
The tissue uptake of CC(C)[C@H](NC(=O)[C@@H]1CCCN1C(=O)[C@H](CCCNC(=N)N)NC(=O)[C@H](CS)NC(=O)[C@H](Cc1c[nH]c2ccccc12)NC(=O)[C@H](CCCNC(=N)N)NC(=O)[C@@H](Cc1ccccc1)NC(=O)[C@H](Cc1c[nH]cn1)NC(=O)[C@H](CCC(=O)O)NC(=O)[C@H](CS)NC(=O)[C@H](CS)NC(=O)COCCOCCNC(=O)[C@@H]1CC(=O)N[C@@H](CCCNC(=N)N)C(=O)NCC(=O)N[C@@H](CC(=O)O)C(=O)N[C@H](Cc2ccc(O)cc2)C(=O)N1)C(N)=O [technetium-99m labelled] is reported as 0.2 ± 0.01 %ID/g (nude mouse, M21 melanoma xenograft, heart; intravenous, 2 h).
For C[C@H](CN(C)Cc1ccccc1)NC(=O)c1ccc(-c2noc(C(F)(F)[18F])n2)cc1, the tissue uptake was 1.9 ± 0.27 SUV (PET imaging; female Sprague-Dawley rats, hippocampus; intravenous, 30 min).
For COc1cc(CNC(=O)C[C@H](C)CCC=C(C)C)ccc1OCc1cn(-c2ccccc2F)nn1, the growth percent was 58.9% (SF-268 CNS cancer cells; SRB; 10 µM, 48 h).
The tissue uptake of CCCC[C@@H]1NC(=O)[C@@H](NC(=O)[C@H](CCC(=O)O)NC(=O)CNC(=O)CN2CCN(CC(=O)O)CCN(CC(=O)O)CCN(CC(=O)O)CC2)CCCCNC(=O)C[C@@H](C(N)=O)NC(=O)[C@H](C(C)C)NC(=O)[C@@H]2CCCN2C(=O)[C@H](CCCNC(=N)N)NC(=O)CNC(=O)[C@H](Cc2c[nH]c3ccccc23)NC(=O)[C@H](CCCNC(=N)N)NC(=O)[C@@H](Cc2ccccc2)NC(=O)[C@H](Cc2c[nH]cn2)NC(=O)[C@H](CCC(=O)O)NC1=O [gallium-67 labelled] is reported as 0.47 ± 0.1 %ID/g (C57 mice, B16/F10 lung metastatic melanoma, liver; intravenous, 0.037 MBq, 4 h).
OCc1cn(Cc2ccc(-c3noc(-c4ccc(OCC[18F])c(C(F)(F)F)c4)n3)cc2)nn1 gave a tissue uptake of 1.67 ± 0.09 %ID/g (female Lewis rat, lung; intravenous, 60 min).

A few entries again:
CCCC[C@H](NC(=O)CN1CCC(NC(=O)CN2CCN(CC(=O)O)CCN(CC(=O)O)CCN(CC(=O)O)CC2)CC1)C(=O)N[C@H]1CC(=O)NCCCC[C@@H](C(N)=O)NC(=O)[C@H](Cc2c[nH]c3ccccc23)NC(=O)[C@H](CCCNC(=N)N)NC(=O)[C@@H](Cc2ccccc2)NC(=O)[C@H](Cc2c[nH]cn2)NC1=O [gallium-68 labelled] has a tissue uptake of 0.1 ± 0.1 %ID/g (C57BL/6J mice male B16-F10 tumour, pancreas; 1 h post injection, unblocked).
O=C(O)CCC(NP(=O)(O)OCCC[C@@H](NC(=O)CC[C@H](NC(=O)CCCCCNC(=O)c1ccc([18F])cc1)C(=O)O)C(=O)O)C(=O)O (stereo partly drawn) has a tissue uptake of 0.004 ± 0.001 %ID/g (mouse, CWR22Rv1 xenograft, blood; dose not given, 4 h, blocking agent pre-dosed).
